Measurements from different studies.
Numbered parts are unrelated; each lists some results of a single study. Positions count from the first letter of the parent shown.

Sample 1
Target: Interferon regulatory factor 5, full length, phosphomimetic (IRF5, Homo sapiens, UniProt Q13568-2, residues 1-514, K96S/S451D/S453D/S456D/S462D)
Method: protein-binding microarray
Form: double-stranded DNA, one strand shown
Sample: in vitro
Concentration: 250 nM
Setting: 60-bp whole probe
With: salmon DNA 0.4 mg/ml
Reference: random background probes
Reading: higher = stronger binding
Constant ends, left off below: GCCTAGCAC … GTCTTGATTCGCTTGACGCTGCTG
| Sequence | log fluorescence |
| --- | --- |
| TCCTGTGACGTTAAGGTCTCGTGCTAG | -0.487 z-score |
| TTAGATATCAGTCTCGATCAGTGCTAG | 1.7 z-score |
| GACGGTATCGGTTTGGGGACGTGCTAG | 6.28 z-score |
| GACGGTCTCGGTATCGGGCCGTGCTAG | 0.821 z-score |
| TTAAATATCGGGTATCGATTAGTGCTA | 6.57 z-score |
| GACGGTCTCGGACTGGGAACGTGCTAG | -0.559 z-score |
| GAGGGTTCCCTTTTCCTGACGTGCTAG | 0.114 z-score |
| TTAAATTTCAGTTTCGATTAGTGCTAG | 10.1 z-score |
| TTAGGACTGAGACTGGGTTAGTGCTAG | -0.463 z-score |
| TTAGGACTGGGTATGGGTTAGTGCTAG | -0.513 z-score |
| TCAACCATCATCCTCACACTGTGCTAG | 0.0663 z-score |
| TTAGAACTGCGGACTGGATTAGTGCTA | -0.615 z-score |
| GACGGTCTCGGTTTTGGGACGTGCTAG | 0.572 z-score |
| GAAGGTCTCGGACTGGGGACGTGCTAG | -0.555 z-score |
| TTCGGTTCCCTTTTCCTTTAGTGCTAG | 1.77 z-score |
| TCAAAATTGTCTCTGTCACTGTGCTAG | 0.736 z-score |
| TCGTTATCCTATATCTGAACGTGCTAG | 0.581 z-score |
| GACGATCTCAGTATCGAGAAGTGCTAG | 1.69 z-score |
| TTTGGACTGGGTCTCGGTTAGTGCTAG | 0.0189 z-score |
| GACAGTTTCCTTATCCTGACGTGCTAG | 1.51 z-score |
| GACGGTCTCCTTCTCCTAACGTGCTAG | 0.207 z-score |
| TCCATTTCTGTTTTTGCTTTGTGCTAG | 3.23 z-score |
| TTCTACTTCTCTTTTTGCTTGTGCTAG | 1.34 z-score |
| TCAGCTTTCCTCGTGATACTGTGCTAG | 0.521 z-score |
| TTAGGACTGGACACTGGGCTAGTGCTA | -0.459 z-score |

Sample 2
Target: Fragile X messenger ribonucleoprotein 1, C-terminal low-complexity region (Fmr1, Mus musculus, UniProt P35922)
Method: RNA Bind-n-Seq
Form: RNA
Sample: in vitro
Concentration: 200 nM
Setting: whole 134-nt RNA, ends assumed
With: 150 mM KCl
Reference: input library
Reading: higher = stronger binding
| Sequence | log2 enrichment |
| --- | --- |
| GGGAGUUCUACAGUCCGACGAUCUAACUUUAGAGGAGGAUCUGUUGGAUAUGGCAGUGGACGUGGAUUUGGGGAUGGCUAUAAUGGGUAUGGAGGAGGACCUGGAGGUGGCAAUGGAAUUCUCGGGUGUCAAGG | 0.33 |
| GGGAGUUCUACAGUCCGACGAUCACCAUGCAGGUCGGCAUCUUUGGGAAGUGGGGCAAGGGGGGGAUAGGGAGGGGGGUAACACUUUGGGAACAGGUGGUCCCAGGUCGUUUCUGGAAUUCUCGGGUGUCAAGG | 1.07 |
| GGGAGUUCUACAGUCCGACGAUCACCAUGCAGGUGGGCAUCUUUGGGAAGUGGGGCAAGGGGGGGAUAGGGAGGGGGGUAACACUUUGGGAACAGGUGGUCCCAGGUCGUAUCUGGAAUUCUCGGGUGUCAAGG | 0.652 |
| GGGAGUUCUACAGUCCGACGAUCUUCCUUCCACGACCCCUGAAGAGCAGCGGUGGGUCUGAGCAUCCUAUCUCCAGGAAGCAGGCCAGCAGGCAAGCCAGCUGCCACCUCGUCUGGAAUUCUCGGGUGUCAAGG | -0.0572 |
| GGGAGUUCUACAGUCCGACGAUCGUCCUGUGCUACACAUCGUAUGUACCGAAUCGGGAAAAAGGGGAAAAAGGAAAAAGGGAAAGUAUUAUGUUACGCCGUUCGGAUCUGCACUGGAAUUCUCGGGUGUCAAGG | -0.166 |
| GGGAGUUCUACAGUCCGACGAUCGUCCUGUGCUACACAUCGUAUGUACCGAAUCGGGUUUUUGGGUUUGGGUUUUUUUGGGAAAGUAUUAUGUUACGCCGUUCGGAUCUGCACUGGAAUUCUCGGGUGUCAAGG | -0.0492 |
| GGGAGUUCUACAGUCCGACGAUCCAAGUCCUGUGCUACACAUCGUAUGUACCGAAUCGGCCCCGGCCCCGGCCCCGGGAAAGUAUUAUGUUACGCCGUUCGGAUCUGCACUUCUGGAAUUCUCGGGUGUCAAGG | -0.429 |
| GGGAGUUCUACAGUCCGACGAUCUCCUGUGCUACACAUCGUAUGUACCGAAUCGGGGAAAAAAAGGGGAGGGGUUUUUGGGGAAAGUAUUAUGUUACGCCGUUCGGAUCUGCAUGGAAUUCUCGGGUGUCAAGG | 0.543 |
| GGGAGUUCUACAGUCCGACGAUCCACGGACAACACGCACCCACACAGACACAGAGGGAAGGGGUUGGGAUGGGGACAGGGUGCACAGCAGGGCGGGGUAGGACCCCAGCCCCUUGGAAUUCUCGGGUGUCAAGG | 1.6 |
| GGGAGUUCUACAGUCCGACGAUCAAGUCCUGUGCUACACAUCGUAUGUACCGAAUCGGAAAAAGGUUUUUGGUUUUUGGAAAGUAUUAUGUUACGCCGUUCGGAUCUGCACUUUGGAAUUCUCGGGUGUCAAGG | -1.17 |

Sample 3
Target: ABI1, truncated, D143A, DHFR fusion (Arabidopsis thaliana)
Method: DHFR PCA, deep sequencing
Sample: yeast
Setting: methotrexate growth selection, single substitutions
With: (+)-ABA 0.0091 µM
Reference: wild-type fitted maximum
Reading: higher = stronger binding
Starting sequence: PYL1, truncated, DHFR fusion (Arabidopsis thaliana); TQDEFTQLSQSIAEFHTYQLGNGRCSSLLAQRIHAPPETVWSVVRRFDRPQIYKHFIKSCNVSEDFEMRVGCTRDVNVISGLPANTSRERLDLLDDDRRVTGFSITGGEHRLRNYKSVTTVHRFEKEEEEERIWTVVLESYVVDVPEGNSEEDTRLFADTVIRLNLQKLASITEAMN
| Substitution | relative binding score [%] |
| --- | --- |
| A158E | -2.99 |
| L20D | 28 |
| E89A | 1.35 |
| R24A | 5.47 |
| I133T | 37.1 |
| Q51M | -7.15 |
| V43F | 2.42 |
| T6E | 45.9 |
| L166R | 0.114 |
| S140P | 5.73 |

Sample 4
Target: RNA binding protein fox-1 homolog 2, RRM domain, GST-SBP tag (RBFOX2, Homo sapiens, UniProt O43251-10, residues 100-194)
Method: RNA Bind-n-Seq
Form: RNA
Sample: in vitro
Concentration: 365 nM
Setting: natural RNA segment, single round, ends assumed
Reference: no-protein control
Reading: higher = stronger binding
Target sequence (chain): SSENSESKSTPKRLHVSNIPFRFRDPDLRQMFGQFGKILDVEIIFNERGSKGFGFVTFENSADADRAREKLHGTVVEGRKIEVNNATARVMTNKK
| Sequence | RBNS enrichment (R) |
| --- | --- |
| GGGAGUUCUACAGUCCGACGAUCGUCAUCGUUUUAACUGGGAACACUUGGUCACUACAAGGACAUGUCCUGGUUCCCUGGGACAGCAGGAUCCCCUCCUCAAAGCAGCCAGAGUUUACUGAACACCAAGGAAGUGGAAUUCUCGGGUGCCAA | 0.208 |
| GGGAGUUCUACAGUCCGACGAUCCAGAGUACAGUAGAGGAGGACUUGUUAGGUUCAUUGUUCCCCGGAAGAAGCUUCCUGCAAUGCCCAGGAGCAUCCCACAGGCAAUAGAGUACCAAUAUGGUAGACCUCUUUGGAAUUCUCGGGUGCCAA | 0.269 |
| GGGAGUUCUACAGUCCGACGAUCUACUCAGUAAAUAUUUGUUGAAAUGAAUGAUAAGAGCAUUGGUCCCCAAGCCAGAGAGCCAGAAGCCAUCACCCAAUGACCGCCCCUUCCUUCCGGUCUACAAGAGCUCUUGGAAUUCUCGGGUGCCAA | 0.753 |
| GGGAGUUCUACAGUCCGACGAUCAUGGAAGAAUAUCUGGCAGGCUUACUUUUAGAAGACGACAAAUCGGUAAGGCUUAUUCAUGGUUCAUUGCCAGGAGCAGAUAUGCUUUUGAGAUCACUUUUAUUUUUGAAUGGAAUUCUCGGGUGCCAA | 0.57 |
| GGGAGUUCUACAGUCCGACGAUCUUGUCUAAACUAUUCAGACACUUGGAGAAUAUUCUCCUUGAAUUAAAAAAGAUGAUUAAGAAGGAUGCUCCUACAACUGUAUCCUGACAGUUAAGUCACAGCUUAAUGUGUGGAAUUCUCGGGUGCCAA | 0.251 |
| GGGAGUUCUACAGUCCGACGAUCUGUGUUCAGUGUUUGACUCCAAAACAGCUGCCUGCUCCCUCAGUGUGCUCGGUGGGGAGAGGGCCGUCACGUCAAGGUCAUUGUUACUGCUUCCCUGGCUGAGUCACAGGUGGAAUUCUCGGGUGCCAA | 1.07 |
| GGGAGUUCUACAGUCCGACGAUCGUGAACGCUAAGAAGUUUCAGACAAGCAGAGAGCUCUAUUUUUAGAAGAAAUAUGUUACACUCAGAAAUGAUGAAACCAAAUCUUAUAUUAAAAGGCAAAGAUGACGGAGUGGAAUUCUCGGGUGCCAA | 0.443 |
| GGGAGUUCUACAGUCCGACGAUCAAAACAUUAUAAAAAAUUUAAGAUAAAAGGUAUUUUAAAAAGAAAACUACCAUAAAGUUAUAUCCACAUGUAAUUUUUUUGAGGAGAUCGAUAAGAGUAGUAGGCACCACUGGAAUUCUCGGGUGCCAA | 0.527 |
| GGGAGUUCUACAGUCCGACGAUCACAGUGCUACUUCUAAGUGAUGUUUAUUUUCUGUACCUGAAAUGGUUGCAAUUUAGAGAUGUUCCAAUUCCAAGAAACUUCGUUUUACUUUACCAAGAAAAAUCCUGUCUUGGAAUUCUCGGGUGCCAA | 0.658 |
| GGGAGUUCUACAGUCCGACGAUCAGCUCAGUGCCAACUAAAACAAAGCACAAAGUUCUCAGAGCUCUUGAGGAAAUGGUUGUCUCCCUGUCCCCAGGCAGGCCUCUUCCCCUCCCUGUCCUGUAAAUAUCCCUUGGAAUUCUCGGGUGCCAA | 0.368 |
| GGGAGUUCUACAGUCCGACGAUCUGGACCUUCAGCCUCUUCUCUUCCAGUUUACCUCCAGGUGGGGCUGAUAUGCCACAUAGGAUGCUCCAAAGCCCCAAGACAUUGGAGUUUGGCUCAAGAGCCUUUAUUUGUGGAAUUCUCGGGUGCCAA | 0.41 |
| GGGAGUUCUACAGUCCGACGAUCCUAGGACAAGGAAUGCUUCUUGAUUCCAUAGCUCUGACUAUAAUGACCCAGGAGAGAGGUGCCCCUUGUGGGAGUUCCAUUCUGUGGCAUGCAACUGAGCAGGGUUAGGGUGGAAUUCUCGGGUGCCAA | 3.85 |

A few entries again (sample 2):
| Sequence | log2 enrichment |
| --- | --- |
| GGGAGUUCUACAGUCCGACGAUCACCAUGCAGGUGGGCAUCUUUGGGAAGUGGGGCAAGGGGGGGAUAGGGAGGGGGGUAACACUUUGGGAACAGGUGGUCCCAGGUCGUAUCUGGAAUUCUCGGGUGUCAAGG | 0.652 |
| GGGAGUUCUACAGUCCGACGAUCUUCCUUCCACGACCCCUGAAGAGCAGCGGUGGGUCUGAGCAUCCUAUCUCCAGGAAGCAGGCCAGCAGGCAAGCCAGCUGCCACCUCGUCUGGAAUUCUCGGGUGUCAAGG | -0.0572 |
| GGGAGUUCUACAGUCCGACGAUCGUCCUGUGCUACACAUCGUAUGUACCGAAUCGGGAAAAAGGGGAAAAAGGAAAAAGGGAAAGUAUUAUGUUACGCCGUUCGGAUCUGCACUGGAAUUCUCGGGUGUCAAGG | -0.166 |
| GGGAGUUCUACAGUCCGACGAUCGUCCUGUGCUACACAUCGUAUGUACCGAAUCGGGUUUUUGGGUUUGGGUUUUUUUGGGAAAGUAUUAUGUUACGCCGUUCGGAUCUGCACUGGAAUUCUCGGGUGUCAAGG | -0.0492 |
